Experimental data gathered from unrelated publications.
Numbered parts are unrelated; each lists some results of a single study.

Set 1
Target: Sal-like protein 4, full length isoform B (SALL4, Homo sapiens, UniProt Q9UJQ4-2, residues 1-616)
Method: universal PBM
Molecule type: double-stranded DNA, one strand shown
Medium: in vitro
Tested at: not given
Notes: 8-mer, flanks averaged, mean of replicates
Reading: higher = stronger binding
Strand	E-score
CTTATGGC	0.0997
GACATCGC	-0.151
AACATAGG	0.122
CTAATACC	0.0644
AAAGCTAA	0.0837
CGTATTGA	0.192
CACCACAG	-0.0766
CAAATAAC	0.268
AAGTTAGA	0.108
AGGCTAGA	-0.0625
ATTGTTCG	0.319
CCTTTCAA	0.107
CACGTGAA	0.0764
CTACGAGC	-0.211
AATAAGAG	0.221
AGGGACTG	-0.174
CATTGGTA	-0.0246
CTATACCC	0.116
GAATTCTC	-0.0233

Set 2
Target: RING finger protein unkempt homolog, zinc fingers 1-6, GST-SBP tag (UNK, Homo sapiens, UniProt Q9C0B0, residues 30-357)
Sequence of UniProt Q9C0B0 (30-357, looked up): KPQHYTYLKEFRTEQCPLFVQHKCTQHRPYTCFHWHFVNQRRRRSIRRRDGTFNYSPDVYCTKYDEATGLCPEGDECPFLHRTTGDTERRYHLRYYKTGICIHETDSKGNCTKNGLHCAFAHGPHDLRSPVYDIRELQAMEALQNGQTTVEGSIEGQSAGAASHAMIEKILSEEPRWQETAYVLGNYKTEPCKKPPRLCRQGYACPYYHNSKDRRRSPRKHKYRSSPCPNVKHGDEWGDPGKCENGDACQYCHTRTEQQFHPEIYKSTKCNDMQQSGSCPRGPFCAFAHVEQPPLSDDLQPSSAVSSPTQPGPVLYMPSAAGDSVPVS
Method: RNA Bind-n-Seq
Molecule type: RNA
Medium: in vitro
Tested at: not given
Notes: RNA with constant flanks, human-mouse chimeric sites, ends assumed
Baseline: input RNA pool
Reading: higher = stronger binding
Strand	bound/input enrichment [ratio]
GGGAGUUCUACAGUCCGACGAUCAUCCAGUACUCGAAUCACAAAGAACUAAAGACAGAUAAUACAUUAAACCAACGUGCGCAGGCAGUUCUUCAAGCUGUGACAGCGGUCCAGACAGCAAAUACUCCUCUUAGUGGCACCACACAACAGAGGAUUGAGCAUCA	0.337
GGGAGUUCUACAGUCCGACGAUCCUGAAAAACACAGAUAUCAAAGUUGUUGACUUUGGAAGUGCAACGUAUGAUGAUGAACAUCACAGUACUUUGGUGUCCACAAGGCACUACAGAGCUCCCGAGGUCAUUUUGGCUCUAGGUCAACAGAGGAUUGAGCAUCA	0.197
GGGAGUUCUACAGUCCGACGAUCGCCACCAGAUCCCAGAAACAUGACUCUUGCUGCCUACAAAGAGAAGAUGAAGGAGCUCCCGCUGGUGUCCUUGUUCUGCUCUUGCUUCCUGGCCGAUCCCCUGAAUAAGUCGUCCUACAACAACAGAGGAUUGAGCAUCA	0.17
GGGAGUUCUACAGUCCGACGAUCUGUGCCCCACAAGAUCCUACCUGAGUGGCAGCUGAAGUUGACUCCCUCUCCUUGCCUGAACCCCCCCCUUUUGUUCCCCCAUCCCCCAGUGUCGGCUGAGAUGUUGCCUCUGCACGGUUCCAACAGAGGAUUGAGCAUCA	1.28
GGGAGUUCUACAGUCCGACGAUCAAAGAGUGGAUAGAGUGUGCACACGGGAUCGGUGGGACCCGGGCGAAAAAGGAGUGCAAGAUAGAGUAUGAUGAUUUCGUAGAGUGUUUGCUUCGGUACAAAACGAUGAGGCGAAUGCAUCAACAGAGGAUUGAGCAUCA	0.929

Set 3
Target: Fragile X messenger ribonucleoprotein 1, C-terminal low-complexity region (Fmr1, Mus musculus, UniProt P35922)
Method: RNA Bind-n-Seq
Molecule type: RNA
Medium: in vitro
Tested at: 200 nM
Notes: whole 134-nt RNA, ends assumed
Added: 150 mM LiCl
Baseline: input library
Reading: higher = stronger binding
Each molecule: 7-deaza-guanosine replaces G
Strand	log2 enrichment
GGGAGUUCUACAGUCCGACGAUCCACGGACAACACGCACCCACACAGACACAGAGGGAAGGGGUUGGGAUGGGGACAGGGUGCACAGCAGGGCGGGGUAGGACCCCAGCCCCUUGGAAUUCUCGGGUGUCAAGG	1.31
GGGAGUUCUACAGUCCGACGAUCUAUAUUGAGGUAUAGAGCUAUUCUUUGUAGGUACCCUGGUGAGACCGAUACAAAUAUGCCCCUCCCCAUAAUGGAAUACUAAUUUUUAUUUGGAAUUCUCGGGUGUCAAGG	1.04
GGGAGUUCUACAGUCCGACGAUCCACAGACAACACGCACCCACACAGACACAGAGGGAAGGGGUUGGGAUGGGGAAAAGGUGCACAGCAGGGCGGGGUAGGACCCCAGCCCCUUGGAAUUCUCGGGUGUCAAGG	0.554
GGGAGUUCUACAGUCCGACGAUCUCCAAACCCAAGAAAAAGAAAUCUUUUUCCAAGGAGGAGUUGAUGAGUAGCGAUCUUGAAGAGACCGCUGGCAGCACCAGUAUUCCCAAGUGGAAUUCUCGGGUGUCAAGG	-1.78
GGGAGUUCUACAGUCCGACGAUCAGUCCUGUGCUACACAUCGUAUGUACCGAAUCGGAAAAAGGGAAAAAGGGAAAAAGGAAAGUAUUAUGUUACGCCGUUCGGAUCUGCACUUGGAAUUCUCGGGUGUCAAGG	-1.39
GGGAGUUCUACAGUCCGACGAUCGUCCUGUGCUACACAUCGUAUGUACCGAAUCGGGGAAAAAGGGGAAAGGGGUUUGGGGAAAGUAUUAUGUUACGCCGUUCGGAUCUGCACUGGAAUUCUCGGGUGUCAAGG	-0.726
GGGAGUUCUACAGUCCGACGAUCGUCCUGUGCUACACAUCGUAUGUACCGAAUCGGAAAAAGGAAAAAAAGGAAAAAAAGGAAAGUAUUAUGUUACGCCGUUCGGAUCUGCACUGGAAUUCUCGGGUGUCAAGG	-0.467
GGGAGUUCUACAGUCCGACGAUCAAGUCCUGUGCUACACAUCGUAUGUACCGAAUCGGGUUUGGGUUUUUGGGUUUGGGAAAGUAUUAUGUUACGCCGUUCGGAUCUGCACUUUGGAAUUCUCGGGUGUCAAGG	-1.83

Set 4
Target: RNA binding protein fox-1 homolog 2, RRM domain, GST-SBP tag (RBFOX2, Homo sapiens, UniProt O43251-10, residues 100-194)
Method: RNA Bind-n-Seq
Molecule type: RNA
Medium: in vitro
Tested at: 365 nM
Notes: natural RNA segment, single round, ends assumed
Baseline: no-protein control
Reading: higher = stronger binding
Construct (chain): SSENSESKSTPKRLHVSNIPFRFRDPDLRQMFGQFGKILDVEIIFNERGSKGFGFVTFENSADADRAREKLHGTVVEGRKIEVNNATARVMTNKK
Strand	RBNS enrichment (R)
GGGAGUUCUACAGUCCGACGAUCAACCUUCAGUGGAAGCAUGUCAUCAAUUCAUCACAGGCCUUUCCUGUCUUUGAAUUAGAAUCCAGACUAGUGUGGGAAGCAGUCUCUCUGGACUUUGAUUUAGGGAUCAUUGGAAUUCUCGGGUGCCAA	4.35
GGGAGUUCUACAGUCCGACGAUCUUUGUACUCCCAAUAACCUGAAGAUUCCAUGUAACUCUUAUGUACGCGCAUGAAUACUUUAAAUGCCAACCUUUUCAAUCAUUUGAUAAAGUCUUUGUAGUCACUCAGUCUGGAAUUCUCGGGUGCCAA	0.359
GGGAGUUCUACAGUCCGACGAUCGGGGCAGCUAGCAUGCCAGGUUGGUCUUUAGGCACCAGAGUCUUUAACAAAAAAAUCCUCUAGUACUGUGUGGUUUUCUAUUCUUCCAGUUCACUCUCCUGACUGUUCAGUGGAAUUCUCGGGUGCCAA	1.23
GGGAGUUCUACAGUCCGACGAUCCUGCUUGUCACUCGGCAGCUUAGGGCCUCUGCGCAGGAACCUGACUAGGACUAUGACCUCCACGGCGGCUGUUUAGGUCUCGACUUACAUCAGAAUCUUGCACAGCAUUGUGGAAUUCUCGGGUGCCAA	0.264
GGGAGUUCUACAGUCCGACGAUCUGUUGCCACAGUUGGGAGAUUUCUUCUUAAUCCUGAUUUUCUUGGUAAGCUUUUUUACUUUAUUAUCUCUAUAAUUUAUUAUCUCUAUCCAUAUUUGUGGAUCGGGUAGUUGGAAUUCUCGGGUGCCAA	0.438
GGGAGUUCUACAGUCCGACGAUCGUCCUCCUGUUCUUGGGAAGCGUUGCCUGACGGCUUCUCGGCUCUACCCUCACCCUUCUGGCCAGGAUCCCGCAGGGCAACAGCCCCAUCUGCUUGGCUGACCCCACACCUGGAAUUCUCGGGUGCCAA	0.664
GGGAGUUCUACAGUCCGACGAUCUCAUCUGGGCAGCCAUUUUUCUUCUCUGCUUCUCUUGAGAUACAUAGUUAAAGUAGACACGGCCUCCCACGCGAGUGUGGUGGGACCUUGAGACUUAGGAGGAUUGCCUGUGGAAUUCUCGGGUGCCAA	1.27
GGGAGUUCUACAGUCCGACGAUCAAACAUACCUUUUUCCUCUUUAAAAAAAAAGAUAUACUCAUUUUUUUAUUUUAUGUGUAUGACUGUUUGCCUACGUGUAUAUAUGUGCACCACCUGUGUGCCUGGUGUCUUGGAAUUCUCGGGUGCCAA	0.472
